Published values of several laboratories.
Lines come from different studies, so protocols differ. ± marks the error that the study gave.

| SMILES | test | system | conditions | how to read | quantity | value |
| --- | --- | --- | --- | --- | --- | --- |
| COc1cc(Nc2ncc3c(n2)-c2ccc(Cl)cc2C(c2c(F)cccc2OC)=NC3)ccc1C(=O)O | – | patients | oral, dose not given, grade 2, any attribution, together with: pembrolizumab | – | decreased lymphocyte count incidence | 50% |
| O=C1CC[C@H](N2Cc3cc(N4CCN(CC5CCN(c6ccc([C@@H]7c8ccc(O)cc8CC[C@@H]7c7ccccc7)cc6)CC5)CC4)ccc3C2=O)C(=O)N1 | – | human | oral, 200 mg, together with: dabigatran etexilate 75 mg | – | participants with TEAE dry lips | 0% |
| Cn1cc(-c2cn3nccc3c(-c3cnn([C@]4(CC#N)C[C@@H](C#N)C4)c3)n2)cn1 | – | healthy humans fed, plasma | oral, 400 mg once daily, day 10, geometric mean | – | peak to trough ratio | 26.9 |
| Cc1cc(C)c(S(=O)(=O)NCc2ccccn2)cc1C | – | octanol/buffer | pH 7.4 | – | logD | 2.66 |
| Cc1cc(-c2nccc3c2ccn3CC(=O)Nc2ccc(-c3cnccn3)cn2)ccn1 | – | human | SAD part, single 7 mg dose | – | subjects with any IMP-related TEAE | 16.7% |
| c1ccc(CN2CCCN3CCN(Cc4ccccc4)CCCN(CC2)Cc2cccc(n2)C3)cc1 | – | 64Cu complex | 2 h, 70 °C, together with: DOTA excess | – | intact complex | 97% |
| CC(C)(F)C[C@H](N[C@@H](c1ccc(-c2ccc(S(C)(=O)=O)cc2)cc1)C(F)(F)F)C(=O)NC1(C#N)CC1 | – | PBS | 100 µM, 23 h, pH 7.45, 37 °C, together with: cysteine 10 mM | – | cysteine adduct formation | 17% |
| CC(C)(C(=O)N1CCOc2c(C#N)cncc2C1)C(F)F | measured: Cardiac disorders | human | oral, 20 mg twice daily, 14 days, multiple ascending dose | – | subjects with adverse event | 0% |
| O=C(O)CCC(=O)O.[2H]C([2H])([2H])Oc1cc(C)c2[nH]ccc2c1CN1CC[C@@H](C2CC2)C[C@H]1c1ccc(C(=O)O)cc1 | – | healthy Chinese subjects | 600 mg, single ascending dose | – | subjects with any TEAE | 16.7% |
| C=CC(=O)NC1CCN(c2ncc3ncnc(Nc4ccc(Oc5ccc6c(c5)ncn6C)c(C)c4)c3n2)CC1 | – | human, male, plasma | oral, 240 mg, adjusted geometric means | baseline: fed over fasted | AUC0-tz ratio | 127% |
| Cc1[nH]c2ccccc2c1C1=C(Cl)C(=O)C(Cl)=C(N2CCOCC2)C1=O | – | mouse | intraperitoneal, 14 days | – | LD50 | 374 mg/kg |
| Cc1cc(NC2CCN(C(=O)OC3CCN(C(=O)/C=C/CN(C)C)C3)CC2)n2ncc(C(C)C)c2n1 (centres unmarked) | – | patients with advanced solid tumours | dose not given, QD arm, grade 3 or higher | – | patients with Headache | 0% |
| CN(C(=O)n1cnc(-c2cccnc2)c1)C1CCCCC1 | – | Wistar rat, midbrain | oral, 10 mg/kg/day of BIA 10-2474, 4 h, repeated 5 days | – | concentration | 34.2 ± 8.4 ng/g |
| CC(C)(C)c1ccc([C@H]2COC[C@@H](c3ccc(C#N)cc3)N2)cc1 | shake-flask, 1-octanol/buffer | – | pH 7.4 | – | logD | > 4.7 |
| C=CC(=O)Nc1cc(Nc2nccc(-c3cn(C)c4ccccc34)n2)c(OC)cc1N(C)CCN(C)C | storage stability | human dried blood spot | 2 h, on ice, LLOQ level | – | recovery | 92.8% |
| COc1ncc(-c2nc3c(n2C(C)C)[C@H](c2ccc(Cl)cc2)N(c2cc(Cl)cn(C)c2=O)C3=O)c(OC)n1 | – | human patients, plasma | oral, 100 mg, high-dose arm, cycle 2 day 1 | – | median Tmax | 2.5 h |
| COc1cc2c3c(n(CCCN4CCOCC4)c(=O)c2cc1OC)-c1cc2c(cc1C3=O)OCO2 | – | beagle dog, plasma | intravenous infusion, 1 h infusion | – | clearance | 28 to 58 L/h/m² |
| NC(N)=NCCC[C@@H](N)C(=O)N[C@@H](CCCN=C(N)N)C(=O)N1CCC[C@H]1C(=O)N1C[C@H](O)C[C@H]1C(=O)NCC(=O)N[C@@H](Cc1cccs1)C(=O)N[C@@H](CO)C(=O)N1Cc2ccccc2C[C@@H]1C(=O)N1[C@H](C(=O)N[C@@H](CCCN=C(N)N)C(=O)O)C[C@@H]2CCCC[C@@H]21 | popPK base model typical value | human | subcutaneous | – | absorption lag time | 0.0418 h |
| CN(CCC(=O)O)C(=O)c1ccc2c(c1)CC[C@@H]1[C@@H]2CC[C@]2(C)C(c3cncc(F)c3)=CC[C@@H]12 | – | premenopausal women, endometriosis pain, serum | 60 mg twice daily, visit 5, mean | baseline: baseline | total bilirubin change | 0.855 mg/dL |

| SMILES | test | system | conditions | how to read | quantity | value |
| --- | --- | --- | --- | --- | --- | --- |
| COc1cc2[nH]c(C)c(-c3cc4ccccc4s3)c(=O)c2cc1Cl | chromatographic | – | pH 7.4 | – | logD | 3.5 |
| C[Si](C)(C)O[Si](C)(C)C | – | air/water | concentration not given | – | enthalpy of phase change | 53 kJ/mol |
| NC/C(=C\F)COc1cccc(Cn2c(=S)[nH]c(=O)c3[nH]cnc32)c1 | – | C57BL/6J mice, lung | oral, 15 mg/kg single, 6 h | – | tissue concentration | 148 ng/mL |
| Cc1cc(C)c(CNC(=O)c2cc(Cl)c3c(c2C)O[C@@](C)([C@H]2CC[C@H](N(C)C)CC2)O3)c(=O)[nH]1 | – | human relapsed/refractory NHL | oral, 200 mg once daily, onset day 1 to 14 | – | AST increased grade ≥3 | 0% |
| COc1ccc2c(=O)n(C)c(-c3ccccc3)nc2c1 | – | Sprague-Dawley rat, male, kidney | oral, 30 mg/kg, 2 h | baseline: kidney over plasma | tissue/plasma ratio | 2.79 |
| CO[C@H]1C[C@@H]2CC[C@@H](C)[C@@](O)(O2)C(=O)C(=O)N2CCCC[C@H]2C(=O)O[C@H]([C@H](C)C[C@@H]2CC[C@@H](OC(=O)NCCOCCOCCOCCOCCOCCOCCOCCOCCC(=O)N3CCc4cc(Cn5nc(-c6ccc7oc(N)nc7c6)c6c(N)ncnc65)ccc4C3)[C@H](OC)C2)C[C@@H](O)[C@H](C)/C=C(\C)[C@@H](O)[C@@H](OC)C(=O)[C@H](C)C[C@H](C)/C=C/C=C/C=C/1C | – | human, plasma | intravenous, 3 mg, cycle 1 | baseline: day 15 over day 1 | AUClast ratio | 2.1 |
| Cc1ccc(NS(=O)(=O)c2cc(C(=O)Nc3ccccc3C(=O)N3CCOCC3)ccc2Cl)c(C)c1 | – | octanol/buffer | pH 7.4 | – | logD | 3.09 |
| Cc1ccc(C)c(OCCCC(C)(C)C(=O)O)c1 | – | human, plasma | oral, dose not given, day 14 predose, mean | – | trough plasma concentration | 1990 ng/mL |
| CC(C)n1c(Nc2cccnc2)nc2cnc(Nc3ccc(N4CCN(C)CC4)cc3)nc21 | measured: eosinophil count increased | healthy human, male | oral, dose not given, CTCAE grade 1-3 | – | subjects with TEAE | 2.4% |
| C=CCN1CC(=O)N2[C@@H](Cc3ccc(O)cc3F)C(=O)N(Cc3cccc(N4CC(N5CCN(CC)CC5)C4)n3)C[C@@H]2N1C(=O)NCc1ccccc1 | – | advanced solid tumour patients | oral, 160 mg twice daily, grade ≥3, dose-escalation | – | treatment-related AST increased | 0% |
| COc1ccc2c(c1)CN(C(=O)CCN1CCC(Cc3ccccc3)CC1)CC[S@@+]2[O-] | – | human plasma | 100 ng/mL | – | fu | 0.115 |
| CO[C@@H]1[C@H](OC(=O)N2CC(CCN3CCOCC3)C2)CC[C@]2(CO2)[C@H]1[C@@]1(C)O[C@@H]1CC=C(C)C | – | humans | subcutaneous, 0.6 mg twice weekly for 4 weeks, day 28 | baseline: baseline | diastolic blood pressure | -1.8 ± 5.6 mmHg |
| Cc1c([C@@H]2COC[C@H](c3cc(Cl)cc(Cl)c3)N2)cnn1-c1ccccc1 | shake-flask, 1-octanol/buffer | – | pH 7.4 | – | logD | > 4 |
| CCc1cc(C(=O)NC)c2nccc(N3CCc4c(cc(Cn5ccnc5)cc4-c4cn(C)nc4C(F)(F)F)C3=O)c2c1 | measured: TBA | Sprague Dawley rat | oral, 100 mg/kg once daily, 7 days | baseline: vehicle | change in clinical chemistry or haematology parameter | 54.5% |
| c1cc(-c2ccc3ncnc(Nc4ncco4)c3c2)cc(N2CC3CCC(C2)O3)c1 | – | human liver microsomes | – | – | CLint | 72 µL/min/mg |
| CCOC(=O)N1C[C@@H](c2ccc(Cl)cc2)N[C@H](c2cc(Cl)cc(Cl)c2)C1 | shake-flask, 1-octanol/buffer | – | pH 7.4 | – | logD | > 4.7 |
| COc1cc(C(=O)N2CCC3(CC2)CC(=O)c2c(cnn2C(C)C)C3)cc(-c2ccc(C(=O)O)cc2)n1 | direct measurement | human, fasting serum | 40 mg once daily, day 13, adjusted geometric mean | baseline: placebo | LDL cholesterol change from baseline | 5.9% |
| CCN1/C(=C/C(C)=O)Sc2ccc(F)cc21 | – | cynomolgus monkey | oral, 100 mg/kg, 24 h post-dose | – | systolic blood pressure | 109 ± 9 mmHg |
| CNCCOC12CC3(C)CC(C)(CC(Cn4ncc(-c5ccc(N6CCc7cccc(C(=O)Nc8nc9ccccc9s8)c7C6)nc5C(=O)O)c4C)(C3)C1)C2 | – | beagle dog, male, anaesthetised | intravenous bolus, 0.03 mg/kg, 135 min | baseline: baseline | dP/dt at 50 change | -10% |

| SMILES | test | system | conditions | how to read | quantity | value |
| --- | --- | --- | --- | --- | --- | --- |
| Cc1c(NS(=O)(=O)c2cccc3nonc23)c(=O)n(-c2ccccc2)n1C | – | octanol/buffer | pH 7.4 | – | logD | 0.99 |
| CCOC(=O)N1C[C@@H](C2CCN(C(=O)OCc3ccccc3)CC2)N[C@@H](C(CC)CC)C1 | shake-flask, 1-octanol/buffer | – | pH 7.4 | – | logD | > 4.7 |
| CCOc1c([C@H](C)n2nc(C)c3c(N)ncnc32)cc(Cl)c(F)c1[C@@H]1CNC(=O)C1 | – | patients, monotherapy | oral, 20 mg once daily, cycle 1 day 1 | – | Tmax median | 1 h |
| NC1(C(=O)N[C@@H](CCO)c2ccc(Cl)cc2)CCN(c2nc[nH]c3nccc2-3)CC1 | – | metastatic CRPC patients | 320 mg b.i.d., grade 3 to 4, treatment-related, together with: enzalutamide 160 mg daily | – | incidence of Pyrexia | 0% |
| CC(C)(C)c1ccc(O)c(CN(Cc2cc(C(C)(C)C)ccc2O)C2CCC(NC(N)=O)CC2)c1 (centres unmarked) | – | mouse plasma | 2000 ng/mL, 24 h, 25 °C, short-term storage | – | recovery | 93.56 ± 0.38% |
| CNC(=O)c1ccc(-c2cnc3ncc(Cc4ccc5ncccc5c4)n3n2)cc1F | – | human plasma | stored at -70 °C | – | freeze-thaw stability | 5 cycles |
| [O]=[Co].[O]=[Co][O][Co]=[O] | – | rat, male, faeces, 24-h collection | oral gavage, single, 300 mg/kg (220 mg Co/kg), day 2, vehicle 0.5% HPMC | baseline: vehicle control subtracted | cobalt concentration | 258 µg/g |
| C=CCn1c(=O)c2cnc(Nc3ccc(N4CCN(C)CC4)cc3)nc2n1-c1ccc2c(n1)[C@@](O)(CC)CC2 | – | female NOD/SCID mouse OVCAR-3 xenograft, plasma | oral, 100 mg/kg once daily, :3 | – | AUC(0-24) | 43.9 µg·h/mL |
| O=C(Nc1nc2cccc(-c3ccc(CN4CCS(=O)(=O)CC4)cc3)n2n1)C1CC1 | measured: hypercholesterolaemia | human rheumatoid arthritis patients | oral, 300 mg once daily, 4 weeks, regardless of relatedness | – | treatment-emergent adverse events | 0% |
| CNc1cc[n+](CCNC(=O)c2ccn3c(-c4c(C)noc4C)cnc3c2)cc1.[Cl-] | – | 0.1 M HCl | 1 weeks, pH 1, room temperature | – | largest degradation product | not detected |
| Cc1noc(C)c1-c1cc(C(O)(c2ccccn2)c2ccccn2)c2nc(C3CC3)[nH]c2c1 | – | human patients, plasma | oral, 3 mg, cycle 1 day 8, monotherapy | – | Ctau | 131 ng/mL |
| CCN1CCN(Cc2ccc(NC(=O)c3ccc(C)c(NC(=O)c4cncc(-c5cccs5)c4)c3)cc2C(F)(F)F)CC1 | LC-MS/MS | C57BL/6 mouse, plasma | intraperitoneal, 20 mg/kg single dose, 6 h | – | mean plasma concentration | 0.139 µg/mL |
| OCc1nc2ccc(NCc3ccc(C(F)(F)F)cc3)cc2[nH]1 | – | Balb/c mouse, male, liver | intravenous, 1 mg/kg, 48 h | – | tissue concentration | 1.7 ± 0.2 ng/g |
| CCCCCN1C[C@H](O)[C@@H](O)[C@H](O)[C@@H]1CO | LC-MS/MS | Hexb-/- mice, male, brain | 30 mg/kg/day | – | geometric mean brain concentration | 37 ng/g |
| CCOC(=O)N1C[C@@H](c2sc(N(C)C)nc2C)N[C@@H](c2ccc(F)c3ccccc23)C1 | shake-flask, 1-octanol/buffer | – | pH 7.4 | – | logD | > 4.7 |
| C[C@@H](Oc1ccc(S(C)(=O)=O)cc1C(=O)N1C[C@@H]2C[C@]2(c2cc(C(F)(F)F)on2)C1)C(F)(F)F | – | healthy young humans, plasma | oral, 10 mg single dose | – | %AUC extrapolated | 26.8% |
| c1ccc(-c2cccc(Nc3nccc(NC4CCCCC4)n3)c2)cc1 | – | MDCKII-WT cells | 10 µM, pH 7.4 | baseline: Papp B-A over A-B | efflux ratio | 14.8 |
| Cc1cc(Nc2cc3ncccc3c(N[C@@H]3C[C@H]4CC[C@@H](C3)N4CCC#N)n2)n[nH]1 | – | healthy human subjects | oral, 30 mg, 14 days, multiple ascending dose | – | skin subcutaneous disorders incidence | 0% |
